# Measurements gathered from unrelated publications.
# Every numbered part comes from another study and shows a few of its results, in no order. Positions count from the first letter of the parent shown.

# Sample 1
# Target: RING finger protein unkempt homolog, zinc fingers 1-6, GST-SBP tag (UNK, Homo sapiens, UniProt Q9C0B0, residues 30-357)
# Sequence of UniProt Q9C0B0 (30-357, looked up): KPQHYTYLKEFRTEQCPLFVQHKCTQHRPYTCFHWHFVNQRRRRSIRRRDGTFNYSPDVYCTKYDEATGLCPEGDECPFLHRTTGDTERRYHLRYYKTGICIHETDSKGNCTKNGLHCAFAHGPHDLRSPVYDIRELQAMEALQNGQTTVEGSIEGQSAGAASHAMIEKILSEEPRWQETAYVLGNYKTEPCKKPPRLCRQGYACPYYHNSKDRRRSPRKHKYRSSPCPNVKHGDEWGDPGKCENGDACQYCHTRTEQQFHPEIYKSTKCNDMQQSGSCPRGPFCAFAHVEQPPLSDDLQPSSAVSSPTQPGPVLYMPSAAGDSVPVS
# Method: RNA Bind-n-Seq
# Molecule type: RNA
# Sample: in vitro
# Concentration: not given
# Setting: RNA with constant flanks, ends assumed
# Relative to: input RNA pool
# Reading: higher = stronger binding
Oligonucleotide,bound/input enrichment
GGGAGUUCUACAGUCCGACGAUCCGAAGUAAGAAAGCAAACCUAGGCAAGAAUGCAAGUGUGAAUGCGCACCAUGGACCAGCACCCGAAGCUGUGGAGACCACUGUGCCCAAGCAAGGACAAAACUUAUGGUUCCUGUGUGACCAACAGAGGAUUGAGCAUCA,0.195 ratio
GGGAGUUCUACAGUCCGACGAUCGAUACAAAAAACAAGGAUGGAGUUCUGGUGGAUGAAUUUGGAUUGCCACAGAUCCCUGCUUCACCGAUUUGCAUCAUUCAAGCAUAUCUUGUAAAACAAACACAUAUUAUGGGACUAGGACAACAGAGGAUUGAGCAUCA,0.34 ratio
GGGAGUUCUACAGUCCGACGAUCCCAGAAUGAUUCUGGGCAUAUACUAAGAAGAGCAGGUAUGGAAAGAUCUAUUGUCAGGGAAUCUCCGAAUUCCCUACACGAGUGGGAGAAAGAUGUCCAAAUUCCUUACGCAGUGGUAUUCAACAGAGGAUUGAGCAUCA,0.241 ratio
GGGAGUUCUACAGUCCGACGAUCAUGUAUGUCUCCAUUCCUGUCUAUCUGUCUGAGUGCCUCAUUUUGUAAUCAUGACAAUCCUACCGAACCUUAGAUGGAAAUGAGUGACUAAGGCCUAGGGGUGUCUGUUUAGGAGUGAAUCAACAGAGGAUUGAGCAUCA,0.395 ratio

# Sample 2
# Target: ABI1, truncated, D143A, DHFR fusion (Arabidopsis thaliana)
# Method: DHFR PCA, deep sequencing
# Sample: yeast
# Setting: methotrexate growth selection, single substitutions
# Together with: (+)-ABA 200 µM
# Relative to: wild-type fitted maximum
# Reading: higher = stronger binding
# Starting sequence: PYL1, truncated, DHFR fusion (Arabidopsis thaliana); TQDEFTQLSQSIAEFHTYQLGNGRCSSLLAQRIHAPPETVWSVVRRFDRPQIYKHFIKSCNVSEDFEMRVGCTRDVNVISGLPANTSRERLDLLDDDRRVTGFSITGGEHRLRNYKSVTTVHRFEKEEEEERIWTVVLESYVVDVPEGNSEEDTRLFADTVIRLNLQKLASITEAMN; partner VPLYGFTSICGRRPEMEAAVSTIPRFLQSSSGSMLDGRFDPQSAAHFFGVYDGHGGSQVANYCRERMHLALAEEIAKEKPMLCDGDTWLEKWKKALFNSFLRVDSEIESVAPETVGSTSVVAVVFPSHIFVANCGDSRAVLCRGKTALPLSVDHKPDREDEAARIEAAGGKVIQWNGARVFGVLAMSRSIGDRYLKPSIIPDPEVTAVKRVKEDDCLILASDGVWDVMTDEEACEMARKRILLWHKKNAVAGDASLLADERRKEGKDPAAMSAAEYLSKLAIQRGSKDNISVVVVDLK
Substitution,relative binding score
R74S,-3.42%
F124C,109%
L156C,99.7%
T120D,3.25%

# Sample 3
# Target: CCNB2, cyclin fold, Cln2 fusion (human)
# Method: yeast growth competition, sequencing
# Sample: yeast
# Setting: weak parent motif
# Relative to: not given
# Reading: higher = stronger binding
# Starting sequence: CDC25A docking peptide (human); PPHRRRLLFACSP
Substitution,normalised enrichment score
H3G,0.63
H3A,0.298
P13D,1.19
R6I,0.0853
H3V,1.33

# Single results of other studies
Molecule,target,assay,system,conditions,how to read,quantity,value
"PhoQ, residues 284 288 289 292 302 303 ALVSVA","PhoP, residues 12 14 15 18 19 DLLYY (Escherichia coli, UniProt P23836)","Sort-seq, item: YFP reporter",E. coli,"PhoQ-PhoP variant library, together with: 10 µM Mg2+","relative to: high Mg2+ state, higher = stronger signaling",fold induction,3.66

# For quick reference, copied from above (sample 3):
Substitution,normalised enrichment score
H3V,1.33
